Measured values collected from several papers.
Compare with care: the assays were run in different laboratories. “And” joins repeats or separate records; there may be more than shown. ± gives the spread as reported.
Faah: Fatty-acid amide hydrolase 1 (Faah, Rattus norvegicus, UniProt P97612)
Sequence of UniProt P97612 (whole entry, looked up): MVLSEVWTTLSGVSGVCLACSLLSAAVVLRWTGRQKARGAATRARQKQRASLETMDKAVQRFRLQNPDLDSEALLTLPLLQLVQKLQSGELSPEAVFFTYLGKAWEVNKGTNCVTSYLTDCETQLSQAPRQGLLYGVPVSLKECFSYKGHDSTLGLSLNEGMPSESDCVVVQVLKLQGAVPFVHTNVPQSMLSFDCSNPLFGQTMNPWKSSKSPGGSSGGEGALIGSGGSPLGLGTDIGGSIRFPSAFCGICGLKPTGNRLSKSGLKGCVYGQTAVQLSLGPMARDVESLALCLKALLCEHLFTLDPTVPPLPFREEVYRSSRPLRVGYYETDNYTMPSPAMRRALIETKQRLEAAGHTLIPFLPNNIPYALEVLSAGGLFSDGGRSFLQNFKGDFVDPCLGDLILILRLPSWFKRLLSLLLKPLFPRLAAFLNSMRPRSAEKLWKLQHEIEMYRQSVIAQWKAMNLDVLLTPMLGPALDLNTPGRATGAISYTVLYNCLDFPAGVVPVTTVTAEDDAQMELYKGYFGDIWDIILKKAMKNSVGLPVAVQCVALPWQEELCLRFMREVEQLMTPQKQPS
Nicotinic acetylcholine receptor alpha1/beta1/epsilon/delta: Nicotinic acetylcholine receptor alpha1/beta1/epsilon/delta (Mus musculus, UniProt P02716+P04756+P09690+P20782)
Sequence of UniProt P42866 (whole entry, looked up): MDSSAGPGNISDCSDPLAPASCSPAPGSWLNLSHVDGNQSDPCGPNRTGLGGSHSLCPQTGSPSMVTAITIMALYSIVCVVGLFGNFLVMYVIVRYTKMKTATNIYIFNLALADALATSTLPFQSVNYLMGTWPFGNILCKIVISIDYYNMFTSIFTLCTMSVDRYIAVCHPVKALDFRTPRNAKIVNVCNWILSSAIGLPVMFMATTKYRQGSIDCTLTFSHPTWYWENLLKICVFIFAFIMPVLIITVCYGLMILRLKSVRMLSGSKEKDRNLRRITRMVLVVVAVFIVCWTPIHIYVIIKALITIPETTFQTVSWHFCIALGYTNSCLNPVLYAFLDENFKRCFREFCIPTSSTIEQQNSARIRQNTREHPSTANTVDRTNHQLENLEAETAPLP
Sequence of UniProt Q6PIU2 (whole entry, looked up): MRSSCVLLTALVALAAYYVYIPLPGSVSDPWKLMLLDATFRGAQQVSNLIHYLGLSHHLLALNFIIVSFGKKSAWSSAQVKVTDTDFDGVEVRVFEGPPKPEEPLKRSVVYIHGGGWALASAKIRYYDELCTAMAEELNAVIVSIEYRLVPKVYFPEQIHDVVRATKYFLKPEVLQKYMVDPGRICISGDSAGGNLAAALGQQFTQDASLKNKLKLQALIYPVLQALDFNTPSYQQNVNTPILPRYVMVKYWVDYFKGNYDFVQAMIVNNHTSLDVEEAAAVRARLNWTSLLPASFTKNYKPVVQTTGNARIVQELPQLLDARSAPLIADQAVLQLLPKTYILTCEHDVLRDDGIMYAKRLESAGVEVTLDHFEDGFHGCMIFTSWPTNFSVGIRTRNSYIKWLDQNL
Sequence of UniProt P32246 (whole entry, looked up): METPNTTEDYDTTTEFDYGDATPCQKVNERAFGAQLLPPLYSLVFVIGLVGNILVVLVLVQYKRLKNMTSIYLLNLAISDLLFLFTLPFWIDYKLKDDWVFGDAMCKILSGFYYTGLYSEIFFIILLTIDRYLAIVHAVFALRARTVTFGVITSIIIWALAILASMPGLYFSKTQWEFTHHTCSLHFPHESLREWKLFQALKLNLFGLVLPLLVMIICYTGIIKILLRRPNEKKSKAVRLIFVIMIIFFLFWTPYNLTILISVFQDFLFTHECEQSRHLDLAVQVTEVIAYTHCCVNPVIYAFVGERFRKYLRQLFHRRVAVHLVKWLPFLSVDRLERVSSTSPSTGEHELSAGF
Sequence of UniProt P20782 (whole entry, looked up): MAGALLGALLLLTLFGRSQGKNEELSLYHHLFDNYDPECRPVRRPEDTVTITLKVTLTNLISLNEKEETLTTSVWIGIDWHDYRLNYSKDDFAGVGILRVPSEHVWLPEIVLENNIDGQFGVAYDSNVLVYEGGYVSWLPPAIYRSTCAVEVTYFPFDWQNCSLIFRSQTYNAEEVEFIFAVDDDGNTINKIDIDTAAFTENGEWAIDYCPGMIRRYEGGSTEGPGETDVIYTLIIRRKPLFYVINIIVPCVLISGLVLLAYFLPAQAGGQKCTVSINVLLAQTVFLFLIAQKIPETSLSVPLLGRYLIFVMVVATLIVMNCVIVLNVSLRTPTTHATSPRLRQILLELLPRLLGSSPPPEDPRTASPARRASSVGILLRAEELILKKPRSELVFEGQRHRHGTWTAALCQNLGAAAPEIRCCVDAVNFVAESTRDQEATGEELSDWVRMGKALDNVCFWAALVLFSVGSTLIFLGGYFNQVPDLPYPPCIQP
Sequence of UniProt P04756 (whole entry, looked up): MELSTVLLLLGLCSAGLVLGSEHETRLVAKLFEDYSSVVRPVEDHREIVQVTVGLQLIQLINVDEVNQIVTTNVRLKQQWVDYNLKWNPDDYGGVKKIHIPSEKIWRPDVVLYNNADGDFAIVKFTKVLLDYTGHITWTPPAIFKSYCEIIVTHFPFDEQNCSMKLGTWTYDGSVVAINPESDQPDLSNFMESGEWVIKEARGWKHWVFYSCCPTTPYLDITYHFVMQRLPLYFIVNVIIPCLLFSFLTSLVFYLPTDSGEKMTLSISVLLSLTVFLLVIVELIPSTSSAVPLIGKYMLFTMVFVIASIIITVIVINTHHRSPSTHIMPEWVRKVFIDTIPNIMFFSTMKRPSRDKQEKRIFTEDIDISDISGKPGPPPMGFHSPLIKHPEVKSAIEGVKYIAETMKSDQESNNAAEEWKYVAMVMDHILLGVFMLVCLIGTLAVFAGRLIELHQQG
Sequence of UniProt P02716 (whole entry, looked up): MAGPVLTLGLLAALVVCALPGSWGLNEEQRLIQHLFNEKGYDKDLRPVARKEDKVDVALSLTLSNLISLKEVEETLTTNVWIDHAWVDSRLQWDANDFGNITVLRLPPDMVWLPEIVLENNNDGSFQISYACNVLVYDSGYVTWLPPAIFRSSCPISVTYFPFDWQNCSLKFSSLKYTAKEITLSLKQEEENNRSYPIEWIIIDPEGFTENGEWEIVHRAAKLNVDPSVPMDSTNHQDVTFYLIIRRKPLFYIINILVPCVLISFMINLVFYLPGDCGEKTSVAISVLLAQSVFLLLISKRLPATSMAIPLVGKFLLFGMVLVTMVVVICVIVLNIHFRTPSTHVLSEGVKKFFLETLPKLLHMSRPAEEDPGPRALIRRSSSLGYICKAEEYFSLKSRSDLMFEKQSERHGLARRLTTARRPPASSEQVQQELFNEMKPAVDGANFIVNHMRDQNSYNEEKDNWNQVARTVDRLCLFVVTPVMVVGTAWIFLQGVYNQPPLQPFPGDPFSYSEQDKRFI
Sequence of UniProt P09690 (whole entry, looked up): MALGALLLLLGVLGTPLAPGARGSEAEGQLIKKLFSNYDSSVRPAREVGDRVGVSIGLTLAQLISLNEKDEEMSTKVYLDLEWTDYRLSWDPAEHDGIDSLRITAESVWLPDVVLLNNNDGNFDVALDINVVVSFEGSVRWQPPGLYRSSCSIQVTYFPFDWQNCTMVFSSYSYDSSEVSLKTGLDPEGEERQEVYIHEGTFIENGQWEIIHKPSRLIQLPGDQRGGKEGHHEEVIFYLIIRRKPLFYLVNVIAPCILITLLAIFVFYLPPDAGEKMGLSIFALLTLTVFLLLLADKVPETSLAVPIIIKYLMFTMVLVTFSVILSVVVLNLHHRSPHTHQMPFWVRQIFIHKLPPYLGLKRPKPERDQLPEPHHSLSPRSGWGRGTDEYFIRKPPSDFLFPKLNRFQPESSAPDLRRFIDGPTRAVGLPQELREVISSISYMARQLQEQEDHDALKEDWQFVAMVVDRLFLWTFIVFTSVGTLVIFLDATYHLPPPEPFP
Sequence of UniProt P0A0C1 (whole entry, looked up): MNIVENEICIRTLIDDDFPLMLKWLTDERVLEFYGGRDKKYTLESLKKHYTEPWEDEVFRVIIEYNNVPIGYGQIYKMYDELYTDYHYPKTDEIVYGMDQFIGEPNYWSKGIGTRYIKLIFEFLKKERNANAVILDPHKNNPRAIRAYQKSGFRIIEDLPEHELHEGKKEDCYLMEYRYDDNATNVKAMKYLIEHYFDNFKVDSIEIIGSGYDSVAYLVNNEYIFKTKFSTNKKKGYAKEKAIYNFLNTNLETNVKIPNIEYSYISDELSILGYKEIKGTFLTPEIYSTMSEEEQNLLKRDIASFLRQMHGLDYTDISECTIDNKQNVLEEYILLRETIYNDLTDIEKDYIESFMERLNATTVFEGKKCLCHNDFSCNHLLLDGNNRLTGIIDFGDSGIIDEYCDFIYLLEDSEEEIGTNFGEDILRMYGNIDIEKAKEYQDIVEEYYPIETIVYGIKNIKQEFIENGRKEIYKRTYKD
Sequence of UniProt Q13546 (whole entry, looked up): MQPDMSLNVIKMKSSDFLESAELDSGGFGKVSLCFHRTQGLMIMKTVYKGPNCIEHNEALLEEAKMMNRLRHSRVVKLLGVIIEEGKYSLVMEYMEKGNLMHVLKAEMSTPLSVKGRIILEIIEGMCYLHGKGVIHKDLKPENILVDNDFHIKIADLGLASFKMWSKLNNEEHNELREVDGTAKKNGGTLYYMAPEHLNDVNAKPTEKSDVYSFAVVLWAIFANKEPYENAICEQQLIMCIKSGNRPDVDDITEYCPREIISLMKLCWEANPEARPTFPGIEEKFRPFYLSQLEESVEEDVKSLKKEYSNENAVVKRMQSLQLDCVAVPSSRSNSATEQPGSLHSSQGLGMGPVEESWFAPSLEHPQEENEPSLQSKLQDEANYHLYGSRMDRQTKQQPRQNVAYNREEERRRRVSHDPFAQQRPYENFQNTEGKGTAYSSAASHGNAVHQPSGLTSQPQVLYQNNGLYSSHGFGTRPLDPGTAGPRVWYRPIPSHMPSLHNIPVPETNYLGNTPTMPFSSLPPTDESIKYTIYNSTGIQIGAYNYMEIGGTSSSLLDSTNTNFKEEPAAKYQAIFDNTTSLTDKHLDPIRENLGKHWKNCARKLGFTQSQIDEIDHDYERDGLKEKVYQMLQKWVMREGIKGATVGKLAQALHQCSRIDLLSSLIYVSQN

CC[C@@H](C)[C@@H](NC(=O)[C@@H](Cc1ccc(O)cc1)NC(=O)[C@H]1CCCN1C(=O)[C@@H](CCCNC(=N)N)NC(=O)[C@H](N)Cc1c[nH]cn1)C(=O)N[C@H](C)C(=O)N[C@H](Cc1c[nH]cn1)C(=O)N[C@H](CCCNC(=N)N)C(=O)N[C@H](CCCCNC(=O)c1cccc(S(=O)(=O)F)c1)C(=O)N[C@H](Cc1ccc(O)cc1)C(=O)N[C@H](CO)C(=O)N[C@H](Cc1ccccc1)C(N)=O  surface TFRC expression (Transferrin receptor protein 1 (Tfrc, Mus musculus, UniProt Q62351); flow cytometry; MC-38; 6 h, unit not given; relative to: 0 h): 0.724
CN(C(=O)n1cnc(-c2ccc[n+]([O-])c2)c1)C1CCCCC1  fold change (Faah; enzyme activity, ABPP; rat, brain; oral, 10 mg/kg/day, 1 days; relative to: vehicle): -42.3
O=C(c1ccc(Oc2ccccc2)cc1Cl)c1c[nH]c2ncnc(N[C@@H]3CC[C@@H](CO)OC3)c12  residence time (Tyrosine-protein kinase BTK, non-phosphorylated (BTK, Homo sapiens, UniProt Q06187); binding): 57.5 min
CN1CCN(c2cc(-c3ccncc3)c(-c3ccc4ccccc4c3)nn2)CC1  inhibition (Nociceptin receptor (OPRL1, Homo sapiens, UniProt P41146); antagonist, FLIPR; 10 µM): 1%
COc1cc2c(Oc3ccc4[nH]c(C)cc4c3F)ccnc2cc1OCC1(N)CC1  Epistaxis incidence (paediatric recurrent refractory sarcoma; 8 mg): 0%
COc1ccc(N2C(=O)N(c3c(C)cccc3Cl)Cc3cnc(Nc4ccc(C5CCN(C)CC5)cc4OC)nc32)nc1  inhibition (PTK6 (Homo sapiens, UniProt Q13882); kinase activity, inhibitor; 0.5 µM, kinase BRK): 103%
CSCC[C@H](NC(=O)[C@@H](N)Cc1c[nH]cn1)C(=O)N[C@@H](Cc1ccc(O)cc1)C(=O)N1CCC[C@H]1C(=O)N[C@@H](CC(N)=O)C(=O)N[C@@H](Cc1ccccc1)C(=O)N[C@H](C(=O)N[C@@H](CCC(N)=O)C(=O)N[C@@H](Cc1ccccc1)C(=O)O)C(C)C  IC50 (HLA class I histocompatibility antigen, A alpha chain, allele A*02:01 (Homo sapiens, UniProt P04439); binding): 13.7 µM
CCCCCCCCCC(=O)N[C@@H](Cc1c[nH]c2ccccc12)C(=O)N[C@H](CC(N)=O)C(=O)N[C@@H](CC(=O)O)C(=O)N[C@@H]1C(=O)NCC(=O)N[C@@H](CCCNC(=O)CCC(=O)N2Cc3ccccc3-c3c(nnn3CCC[C@H](NC(=O)CCCCC[N+]3=C(C=CC4=CC(=CC=C5N(C)c6ccccc6C5(C)C)CCC4)C(C)(C)c4ccccc43)C(=O)NCCCCNC(=O)CCC(=O)N3Cc4ccccc4C#Cc4ccccc43)-c3ccccc32)C(=O)N[C@@H](CC(=O)O)C(=O)N[C@H](C)C(=O)N[C@@H](CC(=O)O)C(=O)NCC(=O)N[C@H](CO)C(=O)N[C@@H]([C@H](C)CC(=O)O)C(=O)N[C@@H](CC(=O)c2ccccc2N)C(=O)O[C@@H]1C  fraction unbound (rapid equilibrium dialysis; human plasma; 1 µM, 2 h, 37 °C): 0.174
C[C@H](N)C(=O)N[C@@H](CCCNC(=N)N)C(=O)N[C@H](C(=O)N[C@@H](CCCC[N+](C)(C)C)C(=O)N[C@@H](CCC(N)=O)C(=O)N[C@H](C(=O)N[C@@H](C)C(N)=O)[C@@H](C)O)[C@@H](C)O  preference over Kme3 peptide (SGF29, TTD (Homo sapiens, UniProt Q96ES7); binding, ITC; relative to: Kme3 peptide KD over compound KD): 1.3 fold
CC(C)(O/N=C(\C(=O)N[C@@H]1C(=O)N2C(C(=O)[O-])=C(C[N+]3(CCNC(=O)c4ccc(O)c(O)c4Cl)CCCC3)CS[C@H]12)c1csc(N)n1)C(=O)O  Trp fluorescence recovery time (Metallo-beta-lactamase type 2 (Serratia marcescens, UniProt P52699); substrate, stopped-flow fluorescence; pH 7.5, 10 °C; relative to: NDM-1): 30 fold
COC(=O)[C@@]1(O)C[C@H]2O[C@]1(C)n1c3ccccc3c3c4c(c5c6ccccc6n2c5c31)C(=O)NC4  remaining activity (MAPK3 (Homo sapiens, UniProt P27361); ADP-Glo; 17.2 µM, with: substrate MBP): 108%
Cc1ncsc1-c1ccc([C@H](CC(=O)N2CCN(c3ccc(C#Cc4ccc(C(=O)N5CCC(n6cc(-c7ccc8c(c7)CCN8C(=O)Cc7cccc(OC(F)(F)F)c7)c7c(N)ncnc76)CC5)cc4)cn3)CC2)NC(=O)[C@@H]2C[C@@H](O)CN2C(=O)[C@@H](NC(=O)C2(F)CC2)C(C)(C)C)cc1  protein level recovery (RIPK1 (Homo sapiens, UniProt Q13546); degrader, Western blot; Jurkat; 100 nM, 24 h after wash-out, 24 h pretreatment then washout): 53%
O=C(O)CCC(=O)C(=O)O  KI over Km (HIF1AN (Homo sapiens, UniProt Q9NWT6, E105A); cosubstrate; tunnel mutant E105A): ~20 fold
C[C@@H](NC(=O)[C@@H](N)Cc1ccc(O)cc1)C(=O)NCC(=O)N(C)[C@@H](Cc1ccccc1)C(=O)NCCO  GTPγS binding (Oprm1 (Mus musculus, UniProt P42866); agonist; mouse spinal cord membranes; 31.6 nM; relative to: basal binding): 0.62% and 0.49% and 1.47% and -1.99% and -0.41% and -3.56% and -3.06%
O=C(O)C(F)(F)C(F)(F)C(F)(F)F  enthalpy change (Albumin (ALB, Homo sapiens, UniProt P02768); isothermal titration calorimetry; concentration not given, 25 °C, first binding site, HSA 20 µM): -8.1 kcal/mol
CC(C)C[C@H](NC(=O)[C@@H](NC(=O)[C@@H](NC(=O)[C@H](CC(=O)O)NC(=O)[C@H](Cc1ccccc1)NC(=O)[C@H](CCC(N)=O)NC(=O)[C@@H](N)CCCCN)C(C)C)[C@@H](C)O)C(=O)N[C@@H](Cc1ccc(O)cc1)C(=O)N[C@@H](Cc1ccccc1)C(=O)O  IC50 (HLA class I histocompatibility antigen, A alpha chain, allele A*24:02 (Homo sapiens, UniProt P04439); binding): 0.79 µM
CN1CCN(S(=O)(=O)c2cc([N+](=O)[O-])ccc2N(CCOS(C)(=O)=O)CCOS(C)(=O)=O)CC1  event-free survival (NSG mice, sample DB PDX; intraperitoneal, 25 mg/kg weekly x3): 55 days
O=C(Nc1cnccc1Cl)N1CCN(Cc2ccc3c(c2)OC(F)(F)O3)CC1  inhibition (CCR1 (Homo sapiens, UniProt P32246); radioligand binding, inhibitor; concentration not given): -14% and -18%
O=C(C1CCOCC1)N1CC(=O)N2CCc3ccccc3[C@@H]2C1  fold change in EC50 (TRPM channel TRPM_PZQ (Schistosoma mansoni, UniProt A0A5K4F0X5); agonist; HEK293 cells transfected; relative to: (R)-praziquantel): ~16 fold
CC(=O)NC[C@H]1[C@H](O)[C@H](O)[C@@H]2[C@H](O)C[C@@H](CO)N21  inhibition (human placental β-N-acetylglucosaminidase; 0.00644 µM, run 2, with: p-nitrophenyl GlcNAc): 51.5%
C[N+]1(C)CCN(c2ccc(Cl)cc2)CC1.[I-]  response relative to ACh (Nicotinic acetylcholine receptor alpha1/beta1/epsilon/delta; peak current, agonist, two-electrode voltage clamp; Xenopus oocytes; 30 µM; relative to: ACh 30 µM): 50%
CN(C(=O)n1cnc(-c2ccc[n+]([O-])c2)c1)C1CCCCC1  inhibition (Faah; probe labelling, inhibitor, competitive ABPP; rat brain membrane fraction; 10 µM, with: azido-FP probe): 57.7%
C[C@H]1CN(c2n[nH]c3nc(N[C@H]4CC[C@H](NS(=O)(=O)CCC(F)(F)F)CC4)ncc23)CCO1  remaining binding (Cysteine--tRNA ligase, cytoplasmic (Homo sapiens, UniProt P49589); Kinobeads competition, item: CARS; 20 µM, unit not given; relative to: vehicle): 1.11
CC(=O)P(=O)(O)OCCc1cn([C@H](Cc2ccccc2)C(=O)O)nn1  IC50 fold increase (dxs (Escherichia coli, UniProt P77488, R99A); inhibitor, DXPS-IspC coupled; relative to: wild-type enzyme): 50 fold
O=C(Nc1cccnn1)N1CCC(=Cc2cccc(Oc3ccc(C(F)(F)F)cn3)c2)CC1  inhibition (PTGER2 (Homo sapiens, UniProt P43116); radioligand binding, inhibitor; 50 µM, human, with: [3H]prostaglandin E2): 35%
[2H]c1c([2H])c([C@]2([2H])CCCN2C(=O)C(C)(C)Oc2ccc3cn[nH]c3c2)c([2H])c([2H])c1C([2H])([2H])[2H]  remaining binding (EIF2AK2 (Homo sapiens, UniProt P19525); KINOMEscan; 1 µM; relative to: DMSO control): 98%
O=C(CCl)Cc1ccc(F)cc1  labelling (UCHL1 (Homo sapiens, UniProt P09936); covalent, intact protein LC-MS; 12.5 µM): 33.8%
CC[N+]1(CC)CCN(c2ccc(F)cc2)CC1  ACh response (Nicotinic acetylcholine receptor alpha1/beta1/epsilon/delta; ion current, inhibitor, two-electrode voltage clamp; Xenopus oocytes; 30 µM, after co-application, unit not given, with: ACh 30 µM; relative to: ACh alone): 0.539 ± 0.234
COc1cc(Nc2ncc(F)c(Nc3ccc4c(n3)NC(=O)C(C)(C)O4)n2)cc(OC)c1OC  inhibition (ACVRL1 (Homo sapiens, UniProt P37023); KINOMEscan; 10 µM): 0%
Clc1ccc(COc2cccc(CNCc3cccnc3)c2)cc1  highest concentration without inhibition (aacA-aphD, AAC(6')-Ie domain (Staphylococcus aureus, UniProt P0A0C1); neomycin acetylation, inhibitor; with: neomycin): > 200 µM
O=C(c1ccc(Cl)cc1)N1CCN2C(=O)N(OC(=O)N3CCOc4ccccc43)C(=O)C2C1 (stereo not drawn)  peptide ratio (NCEH1 (Homo sapiens, UniProt Q6PIU2); MS-based ABPP; SW-620 conditioned medium; 10 µM, 1 h, 37 °C; relative to: compound over DMSO, lower = more inhibition): 1.24 and 1.35 and 1.14 and 1.41 and 1.37 and 1.33
CC(C)[C@@H](O)CC[C@@H](C)[C@H]1CC[C@H]2[C@@H]3CC=C4C[C@@H](O)CC[C@]4(C)[C@H]3CC[C@]12C  potentiation by MTSEA (Glutamate NMDA receptor; GRIN1/GRIN2B (GRIN1/GRIN2B, Homo sapiens, UniProt Q05586+Q13224, A652C); two-electrode voltage clamp; Xenopus oocytes; concentration not given, with PAM, holding -40 mV, with: 200 µM MTSEA, 100 µM glutamate): 1120 ± 78%
COc1cc(N)c(Cl)cc1C(=O)NC1CN2CCC1CC2 (stereo not drawn)  log2 fold change (GPER1 (Homo sapiens, UniProt Q99527); β-arrestin recruitment, TANGO luminescence, item: GPER; concentration not given; relative to: basal luminescence): 0.526

For quick reference, copied from above:
COc1cc(N)c(Cl)cc1C(=O)NC1CN2CCC1CC2 (stereo not drawn)  log2 fold change (GPER1 (Homo sapiens, UniProt Q99527); β-arrestin recruitment, TANGO luminescence, item: GPER; concentration not given; relative to: basal luminescence): 0.526
CC[C@@H](C)[C@@H](NC(=O)[C@@H](Cc1ccc(O)cc1)NC(=O)[C@H]1CCCN1C(=O)[C@@H](CCCNC(=N)N)NC(=O)[C@H](N)Cc1c[nH]cn1)C(=O)N[C@H](C)C(=O)N[C@H](Cc1c[nH]cn1)C(=O)N[C@H](CCCNC(=N)N)C(=O)N[C@H](CCCCNC(=O)c1cccc(S(=O)(=O)F)c1)C(=O)N[C@H](Cc1ccc(O)cc1)C(=O)N[C@H](CO)C(=O)N[C@H](Cc1ccccc1)C(N)=O  surface TFRC expression (Transferrin receptor protein 1 (Tfrc, Mus musculus, UniProt Q62351); flow cytometry; MC-38; 6 h, unit not given; relative to: 0 h): 0.724
